Results collected from several papers.
Lines come from different studies, so protocols differ. ± marks the error that the study gave.
CHRM1: Muscarinic acetylcholine receptor M1 (CHRM1, Homo sapiens, UniProt P11229)
UniProt P11229, sequence (whole entry, looked up): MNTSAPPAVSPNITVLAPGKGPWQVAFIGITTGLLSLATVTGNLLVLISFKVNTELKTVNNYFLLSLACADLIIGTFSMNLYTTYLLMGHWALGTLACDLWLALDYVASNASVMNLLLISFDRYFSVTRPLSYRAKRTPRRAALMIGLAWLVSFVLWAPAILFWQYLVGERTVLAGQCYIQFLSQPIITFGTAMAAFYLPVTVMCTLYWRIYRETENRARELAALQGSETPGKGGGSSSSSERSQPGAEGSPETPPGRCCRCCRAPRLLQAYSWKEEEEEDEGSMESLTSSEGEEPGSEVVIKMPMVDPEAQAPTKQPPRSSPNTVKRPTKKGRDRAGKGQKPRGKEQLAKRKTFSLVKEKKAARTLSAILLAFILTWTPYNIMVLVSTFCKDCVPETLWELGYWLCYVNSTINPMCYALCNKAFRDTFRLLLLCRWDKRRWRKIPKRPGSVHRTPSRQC
UniProt Q92731, sequence (whole entry, looked up): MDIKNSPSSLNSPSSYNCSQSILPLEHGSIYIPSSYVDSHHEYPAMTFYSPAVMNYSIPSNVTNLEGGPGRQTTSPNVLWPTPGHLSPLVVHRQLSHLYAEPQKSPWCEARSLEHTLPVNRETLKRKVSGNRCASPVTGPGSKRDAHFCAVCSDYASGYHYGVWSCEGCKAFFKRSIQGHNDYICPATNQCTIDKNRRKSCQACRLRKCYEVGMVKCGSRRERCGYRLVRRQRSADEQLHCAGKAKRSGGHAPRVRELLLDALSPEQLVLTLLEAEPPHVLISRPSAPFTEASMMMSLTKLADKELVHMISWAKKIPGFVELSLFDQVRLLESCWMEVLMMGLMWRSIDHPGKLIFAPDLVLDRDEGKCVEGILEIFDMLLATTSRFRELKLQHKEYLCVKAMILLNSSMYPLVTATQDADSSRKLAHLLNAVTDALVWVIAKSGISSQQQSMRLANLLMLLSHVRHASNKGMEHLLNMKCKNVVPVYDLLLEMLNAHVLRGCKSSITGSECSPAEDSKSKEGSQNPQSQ
UniProt P08173, sequence (whole entry, looked up): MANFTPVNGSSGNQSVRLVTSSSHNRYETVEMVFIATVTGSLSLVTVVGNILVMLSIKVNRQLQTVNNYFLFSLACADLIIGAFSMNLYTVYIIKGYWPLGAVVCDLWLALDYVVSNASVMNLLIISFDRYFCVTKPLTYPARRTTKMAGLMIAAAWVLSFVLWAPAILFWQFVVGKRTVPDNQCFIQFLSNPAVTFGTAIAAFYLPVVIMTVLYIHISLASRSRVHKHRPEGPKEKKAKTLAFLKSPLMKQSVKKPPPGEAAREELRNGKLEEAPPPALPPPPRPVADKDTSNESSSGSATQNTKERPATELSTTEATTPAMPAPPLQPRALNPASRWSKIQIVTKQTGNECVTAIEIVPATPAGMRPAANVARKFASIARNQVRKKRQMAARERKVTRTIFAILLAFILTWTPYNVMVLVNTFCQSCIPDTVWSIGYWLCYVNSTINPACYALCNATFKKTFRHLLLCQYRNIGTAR
UniProt Q99952, sequence (whole entry, looked up): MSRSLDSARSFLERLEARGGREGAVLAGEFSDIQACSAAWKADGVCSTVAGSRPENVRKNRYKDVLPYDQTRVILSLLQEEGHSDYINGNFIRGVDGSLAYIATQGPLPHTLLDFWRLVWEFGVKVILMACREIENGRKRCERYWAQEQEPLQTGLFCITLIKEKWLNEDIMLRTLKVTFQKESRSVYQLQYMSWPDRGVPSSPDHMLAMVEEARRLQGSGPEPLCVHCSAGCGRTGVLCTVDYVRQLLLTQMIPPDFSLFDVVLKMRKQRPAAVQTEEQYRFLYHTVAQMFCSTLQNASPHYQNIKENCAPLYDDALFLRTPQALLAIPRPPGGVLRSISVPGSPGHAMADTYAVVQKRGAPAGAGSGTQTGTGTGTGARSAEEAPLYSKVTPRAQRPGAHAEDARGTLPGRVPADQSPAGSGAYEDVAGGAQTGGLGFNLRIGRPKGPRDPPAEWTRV
UniProt Q9UNQ0, sequence (whole entry, looked up): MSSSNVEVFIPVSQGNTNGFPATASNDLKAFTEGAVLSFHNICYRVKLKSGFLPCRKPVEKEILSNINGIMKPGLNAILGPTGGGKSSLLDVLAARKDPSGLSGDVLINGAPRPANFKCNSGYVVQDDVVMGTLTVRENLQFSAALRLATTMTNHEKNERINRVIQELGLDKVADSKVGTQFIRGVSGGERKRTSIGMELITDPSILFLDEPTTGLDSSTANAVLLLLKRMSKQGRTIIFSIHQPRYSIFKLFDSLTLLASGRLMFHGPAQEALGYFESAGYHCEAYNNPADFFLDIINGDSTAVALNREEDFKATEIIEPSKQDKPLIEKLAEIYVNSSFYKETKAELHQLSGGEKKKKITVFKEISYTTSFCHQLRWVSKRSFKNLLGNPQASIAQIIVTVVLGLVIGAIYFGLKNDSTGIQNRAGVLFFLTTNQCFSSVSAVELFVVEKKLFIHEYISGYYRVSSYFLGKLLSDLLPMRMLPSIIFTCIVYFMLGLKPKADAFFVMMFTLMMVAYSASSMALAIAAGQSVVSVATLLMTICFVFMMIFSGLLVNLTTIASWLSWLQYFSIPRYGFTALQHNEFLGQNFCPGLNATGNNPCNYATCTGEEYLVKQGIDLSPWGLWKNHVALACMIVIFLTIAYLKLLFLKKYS
UniProt P22309, sequence (whole entry, looked up): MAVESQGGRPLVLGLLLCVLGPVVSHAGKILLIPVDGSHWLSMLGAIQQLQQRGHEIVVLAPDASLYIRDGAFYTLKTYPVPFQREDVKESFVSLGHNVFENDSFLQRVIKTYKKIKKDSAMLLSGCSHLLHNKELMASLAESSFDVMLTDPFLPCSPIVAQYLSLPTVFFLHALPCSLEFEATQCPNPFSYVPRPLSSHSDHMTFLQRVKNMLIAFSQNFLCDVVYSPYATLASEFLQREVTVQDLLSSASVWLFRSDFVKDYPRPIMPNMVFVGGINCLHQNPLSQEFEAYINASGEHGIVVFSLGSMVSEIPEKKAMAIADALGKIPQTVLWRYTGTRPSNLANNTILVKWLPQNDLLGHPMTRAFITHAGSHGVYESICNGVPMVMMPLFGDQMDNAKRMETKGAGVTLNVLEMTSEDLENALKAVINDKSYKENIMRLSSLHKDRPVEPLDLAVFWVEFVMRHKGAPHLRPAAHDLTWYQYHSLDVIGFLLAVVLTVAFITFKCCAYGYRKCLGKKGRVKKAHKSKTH
UniProt P31424, sequence (whole entry, looked up): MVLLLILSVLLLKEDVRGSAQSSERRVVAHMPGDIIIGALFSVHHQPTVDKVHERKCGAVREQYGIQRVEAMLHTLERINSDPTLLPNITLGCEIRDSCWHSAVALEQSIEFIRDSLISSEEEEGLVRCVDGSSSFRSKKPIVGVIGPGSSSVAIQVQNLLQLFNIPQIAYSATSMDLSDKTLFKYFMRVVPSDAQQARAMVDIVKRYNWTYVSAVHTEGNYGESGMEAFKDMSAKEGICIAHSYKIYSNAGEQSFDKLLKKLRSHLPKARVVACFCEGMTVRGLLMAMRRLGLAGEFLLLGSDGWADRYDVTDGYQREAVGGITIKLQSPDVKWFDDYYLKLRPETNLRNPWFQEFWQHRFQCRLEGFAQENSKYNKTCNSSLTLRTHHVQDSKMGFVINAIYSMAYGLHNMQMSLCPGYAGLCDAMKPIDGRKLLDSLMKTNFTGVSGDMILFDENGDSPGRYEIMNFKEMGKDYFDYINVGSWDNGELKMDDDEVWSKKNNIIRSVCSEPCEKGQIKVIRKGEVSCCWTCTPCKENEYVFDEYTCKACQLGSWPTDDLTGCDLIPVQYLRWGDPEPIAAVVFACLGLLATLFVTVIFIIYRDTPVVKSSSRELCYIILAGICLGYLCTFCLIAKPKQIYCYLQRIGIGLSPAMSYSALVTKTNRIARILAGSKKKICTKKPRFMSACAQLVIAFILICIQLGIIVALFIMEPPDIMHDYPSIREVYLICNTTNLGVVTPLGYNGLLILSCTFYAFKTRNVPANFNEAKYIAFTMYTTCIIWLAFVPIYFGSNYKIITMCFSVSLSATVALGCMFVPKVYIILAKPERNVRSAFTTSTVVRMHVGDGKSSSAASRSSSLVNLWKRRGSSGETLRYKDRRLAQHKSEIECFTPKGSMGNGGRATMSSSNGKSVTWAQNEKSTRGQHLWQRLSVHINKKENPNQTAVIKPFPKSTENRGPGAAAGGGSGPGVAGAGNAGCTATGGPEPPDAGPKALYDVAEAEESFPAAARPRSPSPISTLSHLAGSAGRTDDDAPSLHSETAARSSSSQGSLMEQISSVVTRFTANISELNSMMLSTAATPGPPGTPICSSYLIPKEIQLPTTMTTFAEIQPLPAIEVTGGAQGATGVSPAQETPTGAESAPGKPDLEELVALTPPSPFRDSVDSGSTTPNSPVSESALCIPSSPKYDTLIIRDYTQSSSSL
UniProt P53350, sequence (whole entry, unmodified, looked up): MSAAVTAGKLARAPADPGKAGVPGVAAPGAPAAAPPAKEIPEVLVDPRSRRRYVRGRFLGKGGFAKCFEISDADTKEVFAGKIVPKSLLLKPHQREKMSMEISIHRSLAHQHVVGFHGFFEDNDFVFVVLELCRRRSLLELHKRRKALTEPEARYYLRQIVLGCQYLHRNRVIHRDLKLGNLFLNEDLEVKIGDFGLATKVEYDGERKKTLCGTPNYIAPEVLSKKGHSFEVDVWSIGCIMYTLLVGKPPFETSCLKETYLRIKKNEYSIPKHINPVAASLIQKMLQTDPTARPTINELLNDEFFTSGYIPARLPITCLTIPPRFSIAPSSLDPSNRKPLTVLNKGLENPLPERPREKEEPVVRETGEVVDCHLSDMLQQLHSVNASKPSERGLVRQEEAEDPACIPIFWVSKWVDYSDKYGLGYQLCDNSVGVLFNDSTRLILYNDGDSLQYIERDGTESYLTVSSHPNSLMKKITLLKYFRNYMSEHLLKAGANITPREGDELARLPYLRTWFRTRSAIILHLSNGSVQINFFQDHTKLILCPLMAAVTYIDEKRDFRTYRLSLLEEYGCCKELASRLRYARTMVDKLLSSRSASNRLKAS

| Molecule | target | test | test system | conditions | scale | measurement | value |
| --- | --- | --- | --- | --- | --- | --- | --- |
| Cc1ccc(COc2ccccc2-c2cc(=O)n(C3CCCCC3O)cn2)cc1 (stereo not drawn) | CHRM1 | allosteric agonist, IP1 accumulation | CHO-M1 cells | 10 µM, unit not given | relative to: maximum ACh response | change in baseline activity | 45.5 ± 4.2 |
| CIKVAVS | human polyclonal IgM rheumatoid factor | binding to mAb II-481 | peptide | combined CDR peptides, serum MCC |  | maximum inhibition | 0% |
| O=C(O)[C@H]1O[C@@H](Oc2c(-c3ccccc3)oc3ccccc3c2=O)[C@H](O)[C@@H](O)[C@@H]1O | UGT1A1 (Homo sapiens, UniProt P22309) | glucuronidation, substrate, Supersomes |  |  |  | Vmax | 1.74 ± 0.03 nmol/mg/min |
| O=S(=O)(Nc1ccc(Cl)cc1)C1CC2OC1C(c1ccc(O)cc1)=C2c1ccc(O)cc1 (stereo not drawn) | ESR2 (Homo sapiens, UniProt Q92731) | reporter gene, antagonist | HepG2 | added: estradiol 10 nM | relative to: E2 response, negative is inverse agonism | efficacy | -15 ± 1% |
| N#Cc1cnc(Nc2nc3ccccc3o2)nc1-c1ccccc1 | Grm5 (Rattus norvegicus, UniProt P31424) | calcium mobilization, negative allosteric modulator |  | added: glutamate EC80 | relative to: maximal glutamate response | maximal response | 1.9 ± 3% |
| COC(=O)c1scc(C)c1NC(=O)C(C)NCCN1CCOCC1 (stereo not drawn) | SCN10A (Homo sapiens, UniProt Q9Y5Y9) | cell membrane chromatography |  |  | higher = stronger binding | capacity factor k′ | 44 |
| COc1ccc(C)c2sc(NC(=O)Nc3ccncc3)nc12 | CHRM4 (Homo sapiens, UniProt P08173) | calcium mobilization, positive allosteric modulator | CHO expressing hM4 and Gqi5 | concentration not given, added: acetylcholine EC20 |  | activity | inactive |
| CS(=O)(=O)c1ccc(COc2ccccc2-c2cc(=O)n(C3CCCCC3O)cn2)cc1 (stereo not drawn) | CHRM1 | positive allosteric modulator, IP1 accumulation | CHO-M1 cells | 1 µM, 60 min, 37 °C, added: ACh | relative to: ACh alone, higher = stronger potentiation | ΔpEC50 of ACh | 0.56 ± 0.1 log units |
| ARRHSMGWAYKKKK | PLK1 (Homo sapiens, UniProt P53350, T210D) | substrate | peptide | Km of kinase, 1 h, 30 °C | relative to: optimal peptide | phosphorylation | ≤ 1% |
| O=C1c2c(O)ccc(O)c2C(=O)c2c(NCCNCCO)ccc(NCCNCCO)c21 | ABCG2 (Homo sapiens, UniProt Q9UNQ0) | vanadate-sensitive ATPase activity, activator | membrane vesicles | unit not given | relative to: basal | maximal ATPase stimulation | 2.04 |
| Cn1cc(-c2ccc(COc3ccccc3-c3cc(=O)n(C4CCCCC4O)cn3)cc2)cn1 (stereo not drawn) | CHRM1 | positive allosteric modulator, IP1 accumulation | CHO-M1 cells | 1 µM, 60 min, 37 °C, added: ACh | relative to: ACh alone, higher = stronger potentiation | ΔpEC50 of ACh | 1.52 ± 0.14 log units |
| O=[N+]([O-])c1ccc(OP(=O)(O)O)cc1 | PTPN18 (Homo sapiens, UniProt Q99952) | substrate |  | pH 7.0, 37 °C |  | kcat/Km | 2.7 M⁻¹ s⁻¹ |
| O=c1cc(-c2ccccc2OCc2ccc(Cl)nc2)ncn1C1CCCCC1O (stereo not drawn) | CHRM1 | positive allosteric modulator, IP1 accumulation | CHO-M1 cells | 10 µM, 60 min, 37 °C, added: ACh | relative to: ACh alone, higher = stronger potentiation | ΔpEC50 of ACh | 1.04 ± 0.12 log units |
| COc1ccc2cc1Oc1ccc(cc1)C[C@H]1c3c(cc4c(c3Oc3cc5c(cc3OC)CCN(C)[C@@H]5C2)OCO4)CCN1C | Heat shock protein HSP 90-alpha, C-terminal domain (HSP90AA1, Homo sapiens, UniProt P07900) | binding, zonal affinity chromatography |  | pH 7.4, 25 °C |  | retention time | 44 min |
| O=S(=O)(O)CCN1CCN(CCO)CC1 | Neuronal acetylcholine receptor; alpha4/beta2, (α4)2(β2)3 stoichiometry (Homo sapiens, UniProt P17787+P43681) | ion current, positive allosteric modulator, two-electrode voltage clamp | Xenopus oocytes high-sensitivity | unit not given, added: acetylcholine 10 µM | relative to: acetylcholine alone | Imax | 2.7 ± 3.1 |

Excerpt of the above:
| Molecule | target | test | test system | conditions | scale | measurement | value |
| --- | --- | --- | --- | --- | --- | --- | --- |
| COc1ccc2cc1Oc1ccc(cc1)C[C@H]1c3c(cc4c(c3Oc3cc5c(cc3OC)CCN(C)[C@@H]5C2)OCO4)CCN1C | Heat shock protein HSP 90-alpha, C-terminal domain (HSP90AA1, Homo sapiens, UniProt P07900) | binding, zonal affinity chromatography |  | pH 7.4, 25 °C |  | retention time | 44 min |
